Published values from different studies.
Every numbered part comes from another study and shows a few of its results, in no order.

Study 1
Target: PABPC1L2, full length, GST fusion (mouse, UniProt A0ABA7IW68)
Method: RNAcompete
Molecule type: RNA
Matrix: in vitro
Tested at: 20 nM
Setting: 7-mer, probes averaged, single round
Reference: mean of 7-mers
Reading: higher = stronger binding
Construct (chain): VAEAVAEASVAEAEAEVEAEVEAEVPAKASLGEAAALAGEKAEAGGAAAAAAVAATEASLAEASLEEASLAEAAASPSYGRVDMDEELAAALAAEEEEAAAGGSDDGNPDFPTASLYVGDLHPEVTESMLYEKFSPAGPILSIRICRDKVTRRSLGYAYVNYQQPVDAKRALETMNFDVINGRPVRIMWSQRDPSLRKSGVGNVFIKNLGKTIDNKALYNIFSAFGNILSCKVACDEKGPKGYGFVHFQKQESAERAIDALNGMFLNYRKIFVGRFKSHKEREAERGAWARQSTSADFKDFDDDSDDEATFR
`UUGUUGA` has a 7-mer Z-score of -0.393.
With `GGUGGUG` the 7-mer Z-score was -0.0174.
`AUUAUCA` gave a 7-mer Z-score of -0.0772.
The 7-mer Z-score of `GCCCGAC` is reported as -0.298.
For `GACUCAC`, the 7-mer Z-score was -0.22.
`UGAAAGA` gave a 7-mer Z-score of 0.437.
With `UUCAUGG` the 7-mer Z-score was -0.182.
The 7-mer Z-score of `GGCGGAG` is reported as 0.325.
`AUAGAAA` gave a 7-mer Z-score of 2.01.
`AUAGAAC` has a 7-mer Z-score of 0.187.
The 7-mer Z-score of `CGCUUAA` is reported as -0.18.
`GGUUUUC` has a 7-mer Z-score of -0.405.
`CCAGGAC` has a 7-mer Z-score of -0.00833.
With `UUCGAGU` the 7-mer Z-score was -0.431.
`AUGACUU` gave a 7-mer Z-score of -0.267.
For `GCCCGGU`, the 7-mer Z-score was -0.22.
With `GAUCUUU` the 7-mer Z-score was -0.11.
`ACAACCC` has a 7-mer Z-score of -0.229.
With `ACUUUAG` the 7-mer Z-score was 0.0805.

Study 2
Target: Interferon regulatory factor 5, full length, phosphomimetic (IRF5, Homo sapiens, UniProt Q13568-2, residues 1-514, K96S/S451D/S453D/S456D/S462D)
Method: protein-binding microarray
Molecule type: double-stranded DNA, one strand shown
Matrix: in vitro
Tested at: 250 nM
Setting: 60-bp whole probe
Added: salmon DNA 0.4 mg/ml
Reference: random background probes
Reading: higher = stronger binding
Constant ends, left off below: GCCTAGCAC … GTCTTGATTCGCTTGACGCTGCTG
`GACGGACTGGGACTGGGGTCGTGCTAG` has a log fluorescence of -0.28 z-score.
With `TTAGGTTTCGGGCTCGGTTAGTGCTAG` the log fluorescence was 6.01 z-score.
The log fluorescence of `GACGGTCTCCTTTTTCTGACGTGCTAG` is reported as 0.323 z-score.
For `CTTGATTTTGGTCTTTCTGTGTGCTAG`, the log fluorescence was 1.96 z-score.
For `TCATCTATTGCTTTCTCACTGTGCTAG`, the log fluorescence was 1.24 z-score.
`TTAGGTATCGGACTGGGTTGGTGCTAG` has a log fluorescence of 1.49 z-score.
The log fluorescence of `TTAGCTTTCCTTTTCCTTTAGTGCTAG` is reported as 2.02 z-score.
The log fluorescence of `TTAGATCTCAGTCTGGATTAGTGCTAG` is reported as -0.0745 z-score.
The log fluorescence of `TTAGGTGTCCTTCTCCTTTAGTGCTAG` is reported as 0.071 z-score.
`TCATTTTTTCTAATTGAACTGTGCTAG` gave a log fluorescence of 1.22 z-score.
`GACGGTCTCCTTTTCCTGATGTGCTAG` gave a log fluorescence of 0.277 z-score.
`TATGTTCCCTATTTAAGGCAGTGCTAG` gave a log fluorescence of 0.399 z-score.
The log fluorescence of `TTTTTTCTACTTCTGTTTTTGTGCTAG` is reported as 2.96 z-score.
With `CACGGTATCGACACTGGGGACGTGCTA` the log fluorescence was 1.41 z-score.
With `TCATCTTTTATGCTCTTACTGTGCTAG` the log fluorescence was 0.772 z-score.
The log fluorescence of `GACGCACTGAGTCTCGAGACGTGCTAG` is reported as -0.257 z-score.
For `GACGGTTTCGACTATCGGGAGGTGCTA`, the log fluorescence was 7.21 z-score.
With `TCAACTTCCCAATTGTCACTGTGCTAG` the log fluorescence was 0.239 z-score.
With `GACGGTATCGGTCTCAGGACGTGCTAG` the log fluorescence was 5.24 z-score.
The log fluorescence of `GACGAACTGGGGTACCGAGACGTGCTA` is reported as -0.422 z-score.

Study 3
Organism: Saccharomyces cerevisiae
Effect on: binding
Method: competitive growth deep sequencing
Molecule type: peptide
Strain: cyclin E1-Cln2 fusion strain
Tested at: concentration not given
Setting: peptide tiling library
Reading: direction not given
Under “growth enrichment score”, `NFETPEAETPIRSPFK` is recorded as 0.724.
For `DGCSPIKNWSPMRL`, “growth enrichment score” read 1.54.
For `KDDDKAWEYEERDRRS`, “growth enrichment score” read 0.34.
`VLVRTSACRSLFGPVD`: “growth enrichment score” 0.553.
Under “growth enrichment score”, `AEHPKPSACRNLFGPV` is recorded as 2.69.
`TRRRLFVENDSP`: “growth enrichment score” 2.54.
For `VLPGGVPSPGASLTSM`, “growth enrichment score” read 0.573.
Under “growth enrichment score”, `SDSTVTKLDFDLEP` is recorded as 0.276.
For `FQDSGYNELKSCSFDN`, “growth enrichment score” read 0.827.

Mixed results
`PhoQ, residues 284 288 289 292 302 303 AGGCYF` has a fold induction of 10.7 (PhoP, residues 12 14 15 18 19 YHFSH (Escherichia coli, UniProt P23836); Sort-seq, measured: YFP reporter; E. coli; PhoQ-PhoP variant library, added: 10 µM Mg2+; reference: high Mg2+ state, higher = stronger signaling).

Some of these lines once more (study 1):
`AUAGAAC` has a 7-mer Z-score of 0.187.
`AUUAUCA` gave a 7-mer Z-score of -0.0772.
With `UUCAUGG` the 7-mer Z-score was -0.182.
`AUAGAAA` gave a 7-mer Z-score of 2.01.
With `GAUCUUU` the 7-mer Z-score was -0.11.
`UGAAAGA` gave a 7-mer Z-score of 0.437.
`UUGUUGA` has a 7-mer Z-score of -0.393.
